Literature values, collected from citations in different studies.
Values joined by “and” are separate records of one study, mostly repeats; a detail may differ. Numbers after ± are the reported error.

Structure (SMILES) | tested on | test | system | setting | scale | measurement | value
c1ccc2c(c1)CCNC2c1c[nH]c2ncccc12 (centres unmarked) | Staphylococcus aureus | efflux pump inhibition | ATCC 25923 | 50 µM | reference: untreated cells | relative fluorescence index | -0.22
COc1ccc(Nc2nc(Nc3ccc(OCC[18F])cc3)ncc2Br)cc1 | – | – | S180 tumour-bearing mice, bone | intravenous, 120 min | – | tissue uptake | 4.71 ± 0.53 %ID/g
CS(=O)(=O)Nc1ccc(-c2cncc(-c3cccc4cc[nH]c34)c2)cc1 | TNNI3K | – | – | 1 µM | – | remaining activity | < 30%
CCOC(=O)[C@H]1c2c(ccc3ccccc23)O[C@@H]2c3ccsc3CCN21 | Staphylococcus aureus | efflux pump inhibition | ATCC 25923 | 50 µM | reference: untreated cells | relative fluorescence index | 0.06
CS(=O)(=O)c1ccc(-c2ccc3ncnc(Nc4ccc(OCc5cccc(F)c5)c(Cl)c4)c3c2)cc1 | Trypanosoma brucei | parasite growth | – | – | – | EC50 | 900 nM
Cc1sc(-c2ccc(C(F)(F)F)cc2)nc1-c1nn[nH]c1C#N | – | – | ZDF rat | 2 mg/kg/day, 6 weeks | – | HbA1c change from baseline | 2.96 ± 0.15%
CC(C)=CCC/C(C)=C\CCn1cc(CC(C)(P(=O)(O)O)P(=O)(O)O)nn1 | myeloma cells | – | – | – | – | lowest effective concentration | 25 nM
N#Cc1ccnc(N2C(=O)CC[C@H]2C(=O)N(c2cncc(F)c2)[C@H](C(=O)NC2CC(F)(F)C2)c2ccccc2Cl)c1 | – | – | relapsed/refractory mIDH1 AML patients | dose not given, trial, interim | – | overall response rate | 42%
COc1ccc2c(c1)CN(C(=O)CCN1CCC(Cc3ccccc3)CC1)CC[S+]2[O-] (centres unmarked) | – | – | dog | dose not given | reference: animals | atrial flutter conversion | 80%
CN1CCN(S(=O)(=O)c2cccc(-c3ccc4ncnc(Nc5ccc(OCc6cccc(F)c6)c(Cl)c5)c4c3)c2)CC1 | Trypanosoma brucei | parasite growth | – | – | – | EC50 | 3300 nM
c1ccc2c(c1)CCCNC2c1c[nH]c2ncccc12 (centres unmarked) | COLO 205 | cytotoxicity | – | – | – | IC50 | 79600 nM and 50000 to 80000 nM
FC(F)(F)c1ccccc1-c1nc(NCc2cccs2)c2ccccc2n1 | all other kinases | inhibitor | – | 10 µM | reference: control | remaining activity | > 47%
c1ccc2c(c1)CCCNC2c1c[nH]c2ccccc12 (centres unmarked) | COLO 205 | cytotoxicity | – | – | – | IC50 | 97800 nM
COC(=O)C1(CCCCl)C=C(C(=O)OC(C)(C)C)C(=O)CC1 (centres unmarked) | – | GSH adduct formation | PBS | pH 7.4, 37 °C, together with: GSH 10 mM | – | rate constant | 0.089 min⁻¹
c1ccc2c(c1)CCNC2c1c[nH]c2cccnc12 (centres unmarked) | Escherichia coli | efflux pump inhibition | AG100 AcrAB-TolC expressing | 50 µM | reference: untreated cells | relative fluorescence index | 0.37
O=S(=O)(c1ccc(-c2ccc3ncnc(Nc4ccc(OCc5cccc(F)c5)c(Cl)c4)c3c2)cc1)N1CCSCC1 | Trypanosoma brucei | parasite growth | – | – | – | EC50 | 470 nM
CCCCNc1ccc(C(=O)C=C(O)C(F)(F)C(F)(F)F)cn1 | Plasmodium falciparum formate-nitrite transporter | L-lactate transport, inhibitor, radiolabelled uptake | yeast | – | – | IC50 | 330 ± 10 nM
CCOC(=O)[C@H]1c2ccc3ccccc3c2O[C@@H]2c3ccccc3CCN21 | Staphylococcus aureus | efflux pump inhibition | ATCC 25923 | 100 µM | reference: untreated cells | relative fluorescence index | 0.55
O=S(=O)(c1ccc(-c2ccc3ncnc(Nc4ccc(OCc5ccccc5F)c(Cl)c4)c3c2)cc1)N1CCOCC1 | Trypanosoma brucei | parasite growth | – | – | – | EC50 | 1700 nM
CCC(=C(c1ccc(O)cc1)c1ccc(O)cc1)[c-]1cccc1.[Fe+2].c1cc[cH-]c1 | NCI60 human tumour cell panel | cell growth | – | mean-graph midpoint | – | GI50 | 520 nM

A few entries again:
Structure (SMILES) | tested on | test | system | setting | scale | measurement | value
CCOC(=O)[C@H]1c2c(ccc3ccccc23)O[C@@H]2c3ccsc3CCN21 | Staphylococcus aureus | efflux pump inhibition | ATCC 25923 | 50 µM | reference: untreated cells | relative fluorescence index | 0.06
CS(=O)(=O)c1ccc(-c2ccc3ncnc(Nc4ccc(OCc5cccc(F)c5)c(Cl)c4)c3c2)cc1 | Trypanosoma brucei | parasite growth | – | – | – | EC50 | 900 nM
